{"data": "Published values of several laboratories", "CTSL": "Procathepsin L (CTSL, Homo sapiens, UniProt P07711)", "Mitogen-activated protein kinase 14": "Mitogen-activated protein kinase 14 (Rattus norvegicus, UniProt P70618)", "CA2": "Carbonic anhydrase 2 (CA2, Homo sapiens, UniProt P00918)", "uncharacterized protein": "uncharacterized protein (Anopheles gambiae, UniProt Q7QFG0)", "note": "± gives the spread as reported."}
{"SMILES": "O=C(Cn1nnc2ccccc21)Nc1ccccc1-c1cccs1", "target": "CTSL", "test": "enzyme activity, inhibitor, FRET", "IC50": "> 100 µM"}
{"SMILES": "CC(C)C[C@H](NC(=O)CNC(=O)[C@H](CCCNC(=N)N)NC(=O)[C@H](CCCNC(=N)N)NC(=O)[C@H](C)NC(=O)[C@H](CS)NC(=O)[C@H](CC(C)C)NC(=O)[C@H](C)NC(=O)[C@@H](N)Cc1ccc(O)cc1)C(=O)N[C@@H](Cc1ccc(O)cc1)C(=O)N[C@@H](CS)C(=O)N[C@@H](CC(C)C)C(=O)N[C@@H](CO)C(=O)N[C@@H](CC(C)C)C(=O)N[C@@H](CC(=O)O)C(=O)N[C@@H](Cc1c[nH]cn1)C(=O)O", "target": "Mitogen-activated protein kinase 14", "test": "enzyme activity, inhibitor, fluorescence", "setting": "pH 7.4", "IC50": "49.2 µM"}
{"SMILES": "Cc1ccc2c(n1)c(-c1cccc(S(C)(=O)=O)c1)c(C)n2C/C(F)=C/CN", "target": "Myeloperoxidase (MPO, Homo sapiens, UniProt P05164)", "test": "enzyme activity, inhibitor, fluorescence", "IC50": "> 30 µM"}
{"SMILES": "O=S(=O)(N/N=C/c1ccc(OS(=O)(=O)c2ccc(Br)cc2)cc1)c1ccc(Cl)cc1", "target": "CA2", "test": "enzyme activity, inhibitor, absorbance", "IC50": "0.108 µM"}
{"SMILES": "Cc1ccc(C2=CCC(C)(C)c3ccc(C(=O)Nc4ccc(C(=O)O)cc4)cc32)cc1", "target": "Retinoic acid receptor gamma (RARG, Homo sapiens, UniProt P13631)", "IC50": "2.4 µM"}
{"SMILES": "CC(C)CN(CCCC[C@H](NC(=O)[C@H](CCCN1CCOCC1)NC(=O)[C@@H](NC(=O)[C@H](Cc1ccccc1)NC(=O)c1ccc(C(C)(C)C)cc1)C1CCC1)C(=O)N[C@@H](CO)C(N)=O)C1CC2CCC1C2 (some centres unmarked)", "target": "Chromobox protein homolog 8 (Homo sapiens, UniProt Q9HC52)", "test": "ligand displacement, TR-FRET", "IC50": "0.3 µM"}
{"SMILES": "CC(C)C[C@H](NC(=O)[C@H](Cc1ccccc1)NC(=O)CNC(=O)[C@H](CCCNC(=N)N)NC(=O)[C@H](CS)NC(=O)[C@H](C)N)C(=O)N[C@@H](CS)C(=O)N[C@@H](CC(N)=O)C(=O)N[C@@H](Cc1ccc(O)cc1)C(N)=O", "target": "Pyruvate kinase PKM (PKM, Homo sapiens, UniProt P14618)", "test": "enzyme activity, inhibitor, fluorometric", "setting": "2 h, 37 °C, enzyme 500 nM", "IC50": "466 µM"}
{"SMILES": "CC(C)C[C@H](NC(=O)[C@H](CCCNC(=N)N)NC(=O)[C@H](CC(C)C)NC(=O)[C@@H](NC(=O)[C@H](CC(N)=O)NC(=O)[C@H](CCCCN)NC(=O)[C@H](CCCCN)NC(=O)[C@H](CCCNC(=N)N)NC(=O)[C@H](CCCCN)NC(=O)[C@@H](NC(=O)[C@H](CCCCN)NC(=O)[C@H](CCC(=O)O)NC(=O)[C@H](C)NC(=O)[C@@H](N)Cc1ccc(O)cc1)C(C)C)C(C)C)C(=O)N[C@@H](CS)C(=O)N[C@@H](CS)C(=O)O", "target": "Mitogen-activated protein kinase 14", "test": "enzyme activity, inhibitor, fluorescence", "setting": "pH 7.4", "IC50": "2.95 µM"}
{"SMILES": "CC(C)Oc1c(NC(=O)c2ccc(NC(=O)C(CC(N)=O)NC(=O)c3cc(F)c(N=Nc4c(F)cccc4F)c(F)c3)cc2)ccc(C(=O)NN=Cc2ccc(C(=O)O)cc2)c1O (centres unmarked)", "target": "DNA gyrase (gyrA/gyrB, Escherichia coli, UniProt P0AES4+P0AES6)", "test": "DNA supercoiling, inhibitor", "setting": "30 min, 37 °C, dark thermally adapted state, added: relaxed pUC19 DNA", "IC50": "> 25 µM"}
{"SMILES": "O=S(=O)(N/N=C/c1ccc(OS(=O)(=O)c2ccc(Cl)cc2)cc1)c1cc(Cl)ccc1Cl", "target": "CA2", "test": "enzyme activity, inhibitor, absorbance", "IC50": "0.0279 µM"}
{"SMILES": "CC(C)[C@H](NC(=O)[C@H](CCCCN)NC(=O)[C@@H](NC(=O)[C@H](Cc1ccc(O)cc1)NC(=O)[C@H](CC(N)=O)NC(=O)[C@H](CCCNC(=N)N)NC(=O)[C@H](CCC(=O)O)NC(=O)[C@H](Cc1c[nH]cn1)NC(=O)[C@H](CCCNC(=N)N)NC(=O)[C@@H](NC(=O)[C@H](C)NC(=O)[C@@H](N)Cc1ccc(O)cc1)[C@@H](C)O)[C@@H](C)O)C(=O)N[C@@H](CC(N)=O)C(=O)N[C@@H](Cc1ccccc1)C(=O)N[C@@H](CS)C(=O)N[C@@H](CCCCN)C(=O)O", "target": "Mitogen-activated protein kinase 14", "test": "enzyme activity, inhibitor, fluorescence", "setting": "pH 7.4", "IC50": "94.6 µM"}
{"SMILES": "CC(=O)NC1C(O)C=C(C(=O)O)OC1C(O)C(O)CO (centres unmarked)", "target": "Sialidase-3 (Homo sapiens, UniProt Q9UQ49)", "test": "enzyme activity, inhibitor", "IC50": "8 µM"}
{"SMILES": "O=C(O)CCn1c(=O)oc2cc(Cl)c(Cl)cc21", "target": "Potassium voltage-gated channel subfamily A member 5 (KCNA5, Homo sapiens, UniProt P22460)", "test": "ion current, blocker", "IC50": "> 50.1 µM"}
{"SMILES": "CN(C)CCCN1C(=O)CSC1c1ccccc1Cl (centres unmarked)", "target": "uncharacterized protein", "test": "enzyme activity, inhibitor, Ellman", "setting": "added: 1 mM acetylthiocholine", "IC50": "> 200 µM"}
{"SMILES": "CSCC[C@H](NC(=O)[C@H](CC(C)C)NC(=O)[C@H](C)NC(=O)[C@@H](N)Cc1ccc(O)cc1)C(=O)N[C@@H](CCC(=O)O)C(=O)N[C@@H](CCCNC(=N)N)C(=O)N[C@@H](CCCNC(=N)N)C(=O)N[C@@H](CCCNC(=N)N)C(=O)N[C@@H](CC(C)C)C(=O)N[C@@H](CC(N)=O)C(=O)N[C@@H](CCC(N)=O)C(=O)N[C@@H](CC(C)C)C(=O)N[C@@H](CC(C)C)C(=O)N[C@@H](CC(C)C)C(=O)N1CCC[C@H]1C(=O)N[C@@H](CC(C)C)C(=O)O", "target": "Mitogen-activated protein kinase 14", "test": "enzyme activity, inhibitor, fluorescence", "setting": "pH 7.4", "IC50": "> 200 µM"}
{"SMILES": "CCN1CCC[C@H]1CNC(=O)c1cc([N+](=O)[O-])c(N(C)C)cc1OC", "target": "uncharacterized protein", "test": "enzyme activity, inhibitor, Ellman", "setting": "pH 7.4, 30 °C, added: 1 mM acetylthiocholine", "IC50": "20 µM"}
{"SMILES": "O=C(O)C(/C=C/c1c(Cl)cccc1Cl)=N\\Nc1nc(-c2ccccc2)cs1", "target": "Cholinesterase (BCHE, Equus caballus, UniProt P81908)", "test": "enzyme activity, inhibitor", "IC50": "9.14 µM"}
{"SMILES": "CC[C@H](C)[C@H](NC(=O)[C@H](CCCCN)NC(=O)[C@H](CC(C)C)NC(=O)[C@H](CCCCN)NC(=O)[C@H](CC(C)C)NC(=O)[C@H](CCCCN)NC(=O)[C@@H]1CCCN1C(=O)[C@H](CCCCN)NC(=O)[C@H](CO)NC(=O)[C@H](CCCNC(=N)N)NC(=O)[C@H](CCCCN)NC(=O)[C@H](CCCNC(=N)N)NC(=O)[C@H](C)NC(=O)[C@@H](N)Cc1ccc(O)cc1)C(=O)N[C@H](C(=O)N[C@@H](CC(N)=O)C(=O)O)[C@@H](C)CC", "target": "Mitogen-activated protein kinase 14", "test": "enzyme activity, inhibitor, fluorescence", "setting": "pH 7.4", "IC50": "0.054 µM"}
{"SMILES": "Cc1ccc(N2CC3CC(C2)N3C)cc1C(=O)NC1(c2ccc3c4c(cccc24)C(=O)N3C)CC1", "target": "Cytochrome P450 2D6 (CYP2D6, Homo sapiens, UniProt P10635)", "test": "enzyme activity, inhibitor", "IC50": "> 50 µM"}
{"SMILES": "CN(C)CCCN1C(=O)CSC1c1ccc(Cl)cc1 (centres unmarked)", "target": "uncharacterized protein", "test": "enzyme activity, inhibitor, Ellman", "setting": "added: 1 mM acetylthiocholine", "IC50": "186 µM"}
{"SMILES": "CC[C@H](C)[C@H](NC(=O)[C@H](C)NC(=O)[C@@H](N)Cc1ccc(O)cc1)C(=O)N[C@@H](CCCNC(=N)N)C(=O)N[C@@H](C)C(=O)N[C@@H](CCCNC(=N)N)C(=O)N[C@@H](CCCNC(=N)N)C(=O)NCC(=O)N[C@@H](CC(C)C)C(=O)N1CCC[C@H]1C(=O)N[C@@H](CCCNC(=N)N)C(=O)N[C@@H](CC(C)C)C(=O)N[C@@H](C)C(=O)N[C@H](C(=O)N[C@@H](CO)C(=O)N[C@@H](CC(=O)O)C(=O)O)C(C)C", "target": "Mitogen-activated protein kinase 14", "test": "enzyme activity, inhibitor, fluorescence", "setting": "pH 7.4", "IC50": "82 µM"}
{"SMILES": "CC(C)C[C@H](NC(=O)[C@H](Cc1ccccc1)NC(=O)[C@H](CCCNC(=N)N)NC(=O)[C@H](C)NC(=O)CNC(=O)[C@@H]1CCCN1)B(O)O", "target": "PSMB6/PSMB7 (Homo sapiens, UniProt P28072+Q99436)", "test": "caspase-like activity, inhibitor", "setting": "human proteasome 10 nM, added: z-LLE-AMC", "IC50": "> 1 µM"}
{"SMILES": "C[C@@H]1COCCN1c1nc(NCc2cccnc2C(F)(F)F)c2cccnc2n1", "target": "human GABAA receptor", "IC50": "> 100 µM"}
{"SMILES": "CNC(=O)C[C@H](Cc1ccncc1)NC(=O)[C@@H](Cc1cccc(Br)c1)NC(=O)[C@@H](N)Cc1cccc(F)c1", "target": "CTSL", "test": "enzyme activity, inhibitor", "IC50": "> 10 µM"}
{"SMILES": "O=C(CCCN1CCC(O)(c2ccc(Cl)cc2)CC1)c1ccc(F)cc1", "target": "Lanosterol 14-alpha demethylase (ERG11, Candida albicans, UniProt P10613)", "test": "enzyme activity, inhibitor, mass spectrometry", "IC50": "1.09 µM"}
{"SMILES": "Nc1ccn(C2OC(COP(=O)(O)OP(=O)(O)OP(=O)(O)O)C(O)C2(F)F)c(=O)n1 (centres unmarked)", "target": "pyrG (Escherichia coli, UniProt P0A7E5, C268A)", "test": "enzyme activity", "setting": "added: 6.0 mM glutamine, 1.0 mM ATP, 0.05 mM UTP", "IC50": "3.2 ± 0.1 µM"}
{"SMILES": "CC(C)C[C@H](NC(=O)[C@H](CCC(N)=O)NC(=O)[C@H](CCCCN)NC(=O)[C@H](CCCNC(=N)N)NC(=O)[C@H](CCCCN)NC(=O)[C@H](CCC(=O)O)NC(=O)[C@H](CCCNC(=N)N)NC(=O)[C@H](CCCNC(=N)N)NC(=O)CNC(=O)[C@H](CC(N)=O)NC(=O)[C@H](C)NC(=O)[C@@H](N)Cc1ccc(O)cc1)C(=O)N[C@H](C(=O)N[C@@H](CC(C)C)C(=O)N1CCC[C@H]1C(=O)N[C@@H](CO)C(=O)O)[C@@H](C)O", "target": "Mitogen-activated protein kinase 14", "test": "enzyme activity, inhibitor, fluorescence", "setting": "pH 7.4", "IC50": "65.7 µM"}
{"SMILES": "Cc1ccccc1COn1nnc2ccc(S(=O)(=O)N(C)C)cc21", "target": "CTSL", "test": "enzyme activity, inhibitor, FRET", "IC50": "> 100 µM"}
{"SMILES": "CCOC(=O)c1ccccc1-c1c2ccc(=O)cc-2oc2cc(OCCCCCCn3nnnc3C(NCc3ccccc3)c3ccc(Cl)cc3)ccc12 (centres unmarked)", "target": "Polyunsaturated fatty acid lipoxygenase ALOX15 (ALOX15, Homo sapiens, UniProt P16050)", "test": "enzyme activity, inhibitor, absorbance", "IC50": "53.4 µM"}
{"SMILES": "Cc1nc2c(=O)n(C)c(=O)nc-2n(C)n1", "target": "Cruzipain (Trypanosoma cruzi, UniProt P25779)", "test": "enzyme activity, inhibitor", "IC50": "2 µM"}
{"SMILES": "O=C(Nc1cccs1)c1cccnc1", "target": "Nicotinamide phosphoribosyltransferase (NAMPT, Homo sapiens, UniProt P43490)", "test": "enzyme activity, inhibitor, fluorescence", "IC50": "48 µM"}
{"SMILES": "O=C(Cc1ccccc1)N[C@H](C(=O)O)[C@@H]1N=C(C(=O)O)C(CS[C@H](Cc2ccccc2)C(=O)O)CS1 (some centres unmarked)", "target": "Metallo-beta-lactamase IMP-28 (Klebsiella oxytoca, UniProt G4WB26)", "test": "enzyme activity, inhibitor", "setting": "added: nitrocefin", "IC50": "0.64 ± 0.05 µM"}
